Published values from different studies.
Lines come from different studies, so protocols differ. “And” joins repeats or separate records; there may be more than shown. Numbers after ± are the reported error.
prp N63Q: Ribosomal processing cysteine protease Prp (prp, Staphylococcus aureus, UniProt Q2FXS9, N63Q)
Chain of UniProt Q13258 (whole entry, looked up): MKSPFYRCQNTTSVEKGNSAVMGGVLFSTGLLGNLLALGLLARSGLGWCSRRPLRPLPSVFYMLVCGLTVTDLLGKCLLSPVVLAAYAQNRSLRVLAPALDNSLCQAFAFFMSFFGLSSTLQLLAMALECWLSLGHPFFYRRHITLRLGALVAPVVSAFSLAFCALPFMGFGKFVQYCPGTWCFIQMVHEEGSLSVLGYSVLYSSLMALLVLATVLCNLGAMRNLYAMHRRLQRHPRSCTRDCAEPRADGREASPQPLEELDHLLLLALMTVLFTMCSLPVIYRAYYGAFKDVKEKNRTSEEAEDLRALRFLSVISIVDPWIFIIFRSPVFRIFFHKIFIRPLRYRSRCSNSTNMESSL
Chain of UniProt Q09013 (whole entry, looked up): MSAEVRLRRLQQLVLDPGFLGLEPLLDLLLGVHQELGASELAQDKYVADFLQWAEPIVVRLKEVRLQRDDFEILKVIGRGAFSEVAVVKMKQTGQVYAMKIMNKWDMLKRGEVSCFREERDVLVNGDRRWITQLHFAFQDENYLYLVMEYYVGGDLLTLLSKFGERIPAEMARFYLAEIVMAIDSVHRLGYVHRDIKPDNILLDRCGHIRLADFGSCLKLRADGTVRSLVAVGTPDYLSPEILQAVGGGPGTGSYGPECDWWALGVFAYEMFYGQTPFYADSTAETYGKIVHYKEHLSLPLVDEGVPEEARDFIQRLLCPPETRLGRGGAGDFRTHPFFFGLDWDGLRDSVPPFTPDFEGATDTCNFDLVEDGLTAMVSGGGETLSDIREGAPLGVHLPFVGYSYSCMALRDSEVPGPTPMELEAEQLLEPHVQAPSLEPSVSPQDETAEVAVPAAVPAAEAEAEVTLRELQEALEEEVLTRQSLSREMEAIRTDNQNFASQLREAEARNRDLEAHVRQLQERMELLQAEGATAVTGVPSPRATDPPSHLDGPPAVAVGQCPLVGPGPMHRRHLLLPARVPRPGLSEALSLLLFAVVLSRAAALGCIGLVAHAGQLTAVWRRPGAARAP
Chain of UniProt P35626 (whole entry, looked up): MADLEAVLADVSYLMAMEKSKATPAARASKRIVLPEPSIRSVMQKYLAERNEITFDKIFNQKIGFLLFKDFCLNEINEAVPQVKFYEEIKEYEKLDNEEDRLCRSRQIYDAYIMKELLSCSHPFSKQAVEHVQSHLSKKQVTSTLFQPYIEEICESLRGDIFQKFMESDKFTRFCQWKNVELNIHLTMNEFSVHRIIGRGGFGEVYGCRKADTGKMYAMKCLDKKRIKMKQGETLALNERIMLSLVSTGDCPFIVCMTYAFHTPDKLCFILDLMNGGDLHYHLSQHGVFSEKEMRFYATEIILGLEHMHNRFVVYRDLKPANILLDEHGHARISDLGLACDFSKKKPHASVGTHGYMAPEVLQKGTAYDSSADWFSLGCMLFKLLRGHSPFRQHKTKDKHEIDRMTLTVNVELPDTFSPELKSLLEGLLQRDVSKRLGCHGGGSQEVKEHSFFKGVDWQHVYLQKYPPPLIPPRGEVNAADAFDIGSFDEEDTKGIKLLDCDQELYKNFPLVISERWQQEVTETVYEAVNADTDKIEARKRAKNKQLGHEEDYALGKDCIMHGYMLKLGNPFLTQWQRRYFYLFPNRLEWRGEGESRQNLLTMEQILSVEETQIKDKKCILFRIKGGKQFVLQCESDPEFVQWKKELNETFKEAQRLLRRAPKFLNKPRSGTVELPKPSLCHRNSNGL
Chain of UniProt P37288 (whole entry, looked up): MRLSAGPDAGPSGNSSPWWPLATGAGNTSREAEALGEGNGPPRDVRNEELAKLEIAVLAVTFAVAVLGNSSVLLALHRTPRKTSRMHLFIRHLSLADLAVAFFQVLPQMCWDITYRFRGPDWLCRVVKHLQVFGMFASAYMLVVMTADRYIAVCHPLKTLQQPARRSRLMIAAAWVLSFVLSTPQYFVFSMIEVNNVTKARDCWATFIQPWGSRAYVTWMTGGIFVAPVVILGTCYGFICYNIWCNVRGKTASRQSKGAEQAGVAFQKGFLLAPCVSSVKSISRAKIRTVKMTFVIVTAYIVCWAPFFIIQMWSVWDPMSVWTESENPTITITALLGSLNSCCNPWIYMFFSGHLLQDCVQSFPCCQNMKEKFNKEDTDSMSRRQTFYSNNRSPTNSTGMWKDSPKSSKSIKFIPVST

CC#CCn1c(N2CCC[C@@H](N)C2)nc2c1c(=O)n(Cc1nc(C)c3ccccc3n1)c(=O)n2C has an inhibition of 21.1 ± 10.6% (prp N63Q; enzyme activity, inhibitor; 10 µM, prp 21.4 nM, added: FITC peptide substrate 0.5 µM).
With O=C(Nc1cccnn1)N1CCC(=Cc2cccc(Oc3ccc(C(F)(F)F)cn3)c2)CC1 the inhibition was 38% (PTGDR (Homo sapiens, UniProt Q13258); radioligand binding, inhibitor; 50 µM, human, added: [3H]prostaglandin D2).
For CC(=O)NC[C@H]1[C@H](O)[C@H](O)[C@@H]2[C@H](O)C[C@@H](CO)N21, the inhibition was 15.5% (human placental β-N-acetylglucosaminidase; 0.00161 µM, run 1, added: p-nitrophenyl GlcNAc).
With CN(C(=O)n1cnc(-c2ccc[n+]([O-])c2)c1)C1CCCCC1 the inhibition was 18% and 11% (somatostatin sst3 receptor; concentration not given).
C[C@H](NC(=O)Cc1cc(F)cc(F)c1)C(=O)N[C@H](C(=O)OC(C)(C)C)c1ccccc1 gave an inhibition of -15.1 ± 21.2% (prp N63Q; enzyme activity; 10 µM, 21.4 nM enzyme dimer, added: 0.5 µM FITC-labelled peptide substrate).
For CN1CCN(c2cc(-c3ccncc3)c(-c3ccc4ccccc4c3)nn2)CC1, the inhibition was -0.4% (AVPR1A (Homo sapiens, UniProt P37288); antagonist, FLIPR; 10 µM).
With N[C@H]1C(O)O[C@H](CO)[C@@H](O)[C@@H]1O (stereo partly shown) the inhibition was -3.5 ± 14% (prp N63Q; enzyme activity, inhibitor; 10 µM, prp 21.4 nM, added: FITC peptide substrate 0.5 µM).
O=C(Nc1cnccc1Cl)N1CCN(Cc2ccc3c(c2)OC(F)(F)O3)CC1 gave an inhibition of -12% (DMPK (Homo sapiens, UniProt Q09013); kinase activity, inhibitor; 50 µM, added: Axltide substrate).
COc1ccc(N2C(=O)N(c3c(C)cccc3Cl)Cc3cnc(Nc4ccc(C5CCN(C)CC5)cc4OC)nc32)nc1 has an inhibition of 2% (GRK3 (Homo sapiens, UniProt P35626); kinase activity; 0.5 µM).
COc1cc(Nc2ncc(F)c(Nc3ccc4c(n3)NC(=O)C(C)(C)O4)n2)cc(OC)c1OC gave an inhibition of 88% (PRKACA (Homo sapiens, UniProt P17612); KINOMEscan; 10 µM, PKAC-alpha).

A few entries again:
For CC(=O)NC[C@H]1[C@H](O)[C@H](O)[C@@H]2[C@H](O)C[C@@H](CO)N21, the inhibition was 15.5% (human placental β-N-acetylglucosaminidase; 0.00161 µM, run 1, added: p-nitrophenyl GlcNAc).
